Assay results collected from several papers.
Lines come from different studies, so protocols differ. Values joined by “and” are separate records of one study, mostly repeats; a detail may differ. ± gives the spread as reported.

`CC(C)(C(=O)N1CCOc2c(C#N)cncc2C1)C(F)F` — result for “subjects with adverse event”: 0% (item: Insomnia; human; oral, 20 mg once daily, 14 days, multiple ascending dose).
`O=C1NCCc2nc(OCc3cccc(F)c3)ccc21` — result for “Irwin test score”: 0 (item: Miosis; Sprague-Dawley rat male; oral, 100 mg/kg, 30 min; direction not given).
Under “change in Calcium”, `OC[C@H]1O[C@@H](c2ccc(Cl)c(Cc3ccc(O[C@H]4CCOC4)cc3)c2)[C@H](O)[C@@H](O)[C@@H]1O` is recorded as -0.1 mg/dL (Japanese type 1 diabetes patients, blood; 25 mg, day 28; baseline: baseline).
Under “placebo-corrected change from baseline”, `N#Cc1ccc(-c2cnc3ccc(-c4ccc(C(=O)N5CCOCC5)cc4)cn23)cc1` is recorded as -1 ms (item: QRS interval; healthy volunteers; oral, 20 mg, fasted, time-averaged).
`Cc1cc(Nc2ncnc3ccc(NC4=NC(C)(C)CO4)cc23)ccc1Oc1ccn2ncnc2c1` has an AUC(0-last), mean of 2230 ng·h/mL (human, plasma; oral, 300 mg, day 1, single dose alone).
The dose-adjusted solubility of `CC1(C)CCC(CN2CCN(c3ccc(C(=O)NS(=O)(=O)c4ccc(NCC5CCOCC5)c([N+](=O)[O-])c4)c(Oc4cnc5[nH]ccc5c4)c3)CC2)=C(c2ccc(Cl)cc2)C1` is reported as 3.37e-07 mL⁻¹ (FaSSIF; literature solubility over dose).
With `CO[C@H]1C[C@@H]2CC[C@@H](C)[C@@](O)(O2)C(=O)C(=O)N2CCCC[C@H]2C(=O)O[C@H]([C@H](C)C[C@@H]2CC[C@@H](OC(=O)NCCOCCOCCOCCOCCOCCOCCOCCOCCC(=O)N3CCc4cc(Cn5nc(-c6ccc7oc(N)nc7c6)c6c(N)ncnc65)ccc4C3)[C@H](OC)C2)C[C@@H](O)[C@H](C)/C=C(\C)[C@@H](O)[C@@H](OC)C(=O)[C@H](C)C[C@H](C)/C=C/C=C/C=C/1C` the AUClast ratio was 2.6 (human, plasma; intravenous, 8 mg, cycle 1; baseline: day 15 over day 1).
Under “food effect on Ka”, `COc1cc(N2CCC3(CCN(C)CC3)CC2)ccc1Nc1ncc(Cl)c(Nc2ccccc2P(C)(C)=O)n1` is recorded as 0.627 (population PK model; human; oral, final model without outliers, unit not given; baseline: fasting).
`O=C(Nc1nc2cccc(-c3ccc(CN4CCS(=O)(=O)CC4)cc3)n2n1)C1CC1` — result for “treatment-emergent adverse events”: 8.3% (item: pyrexia; rheumatoid arthritis patients; oral, 200 mg once daily, 4 weeks, any relatedness).
With `Cc1cc(O)c2c(c1)C(=O)c1cccc(O)c1C2=O` the viability was 86.8 ± 15.6% (HK-2 co-cultured with HepaRG; MTT; 266.67 µM, 24 h; baseline: untreated control).
`Cc1ccc(Sc2ccccc2N2CCNCC2)c(C)c1` — result for “participants with TEAE”: 0% (item: abdominal pain; healthy adult men; oral, 20 mg daily, 12 days).
`Cc1occc(=O)c1[O-].[Cl-].[W+4].c1cc[cH-]c1.c1cc[cH-]c1` has an oxidation potential of 569 mV (cyclic voltammetry; baseline: Ag/AgCl).
`COc1cc2c(c(O)c1OC)C(=O)c1c(cc(C)c(O[C@@H]3O[C@H](CO)[C@@H](O)[C@H](O)[C@H]3O)c1OC)C2=O` has a cell viability of 83.5 ± 7.81% (HK-2 co-cultured with HepaRG; MTT; 33.33 µM, 24 h; baseline: untreated control).
`C=CCN1CC(=O)N2[C@@H](Cc3ccc(O)cc3F)C(=O)N(Cc3cccc(N4CC(N5CCN(CC)CC5)C4)n3)C[C@@H]2N1C(=O)NCc1ccccc1`: “treatment-related adverse events” 5.6% (item: decreased appetite; human advanced solid tumours; concentration not given, dose escalation grade ≥3).
`Cl.[2H]C([2H])([2H])CC(=O)c1cnc(NC(=O)C2CC2)cc1Nc1cccc(-c2ncn(C([2H])([2H])[2H])n2)c1OC` gave a CL/F of 15.3 L/h (geometric mean; human; 20 mg once daily, day 7, fasted, liquid, multiple dose).
Under “patients with adverse event”, `CNC(=O)c1ccc(-c2cnc3ncc(Cc4ccc5ncccc5c4)n3n2)cc1F` is recorded as 11% (item: Constipation, all grades; cancer patients; oral, 600 mg twice daily, other expansion cohort, any causality).
`C=CC(=O)Nc1cc(Nc2nccc(-c3cn(C4CC4)c4ccccc34)n2)c(OC)cc1N(C)CCN(C)C` gave an RDW-CV of 18.3 ± 0.259% (BALB/c nude mice, LU0387 xenograft, blood; oral, 40 mg/kg).
The recovery of `C=CC(=O)Nc1cc(Nc2nccc(-c3cn(C)c4ccccc34)n2)c(OC)cc1N(C)CCN(C)C` is reported as 79.2% (storage stability; human plasma; 72 h, on ice, medium QC level).
`CC[C@H](C)[C@H](NC(=O)[C@H](CO)NC(=O)[C@H](CCCNC(=N)N)NC(C)=O)C(=O)N[C@H]1CSSC[C@@H](C(=O)N[C@H](C(N)=O)[C@@H](C)O)NC(=O)[C@H](CCCNC(=N)N)NC(=O)[C@H](Cc2c[nH]cn2)NC(=O)[C@H](C)NC(=O)CNC(=O)[C@H](Cc2c[nH]c3ccccc23)NC(=O)[C@H](CC(=O)O)NC(=O)[C@H](CCC(N)=O)NC(=O)[C@H](Cc2c[nH]c3ccccc23)NC(=O)[C@H](C(C)C)NC1=O` has a retention factor of 0.494 ± 0.013 (isocratic RP-HPLC, C18; 32% acetonitrile, phosphate pH 7.4, 1% TFA; 25 °C).
The Vss observed of `CCc1c(-c2ccccc2)c(-c2ccccc2)nn1-c1ccccc1-c1cccc(OCC(=O)O)c1` is reported as 0.595 L/kg and 0.631 L/kg and 0.482 L/kg (Sprague-Dawley rat; intravenous).
With `CC=CC1CCC(C2CCC(CCC)CC2)CC1` (stereo not shown) the fetal accumulation was 0.664 ± 0.239 ng/g (rat, fetus; 1000 ng/mL in perfusate, middle dose, mixture of 21 LCMs).
`COc1ccc2c(=O)n(C)c(-c3ccccc3)nc2c1` gave a tissue/plasma ratio of 0.66 (Sprague-Dawley rat, male, heart; oral, 30 mg/kg, 0.5 h; baseline: heart over plasma).
The radiochemical purity of `N[C@@H](C[18F])C(=O)O` is reported as > 98% (radio-HPLC; saline; 3 h).
Under “systolic blood pressure”, `COc1ccc2c(c1)CN(C(=O)CCN1CCC(Cc3ccccc3)CC1)CC[S@@+]2[O-]` is recorded as 143 ± 17 mmHg (telemetry; conscious male beagle dogs; intravenous, NG, 4 h).
With `CN1C[C@H](COc2nccc3c(NCc4ccco4)cc(Cl)nc23)OC1=O` the RR interval was 404 ms (rabbit NZW female, isolated Langendorff heart; 10 µM, 15 min).
`CCc1cc(C(=O)NC)c2nccc(N3CCc4c(cc(Cn5ccnc5)cc4-c4cn(C)nc4C(F)(F)F)C3=O)c2c1` gave a t1/2 of 1.7 h (Sprague Dawley rat, male, plasma; oral, 100 mg/kg twice daily, day 1).
The bound fraction of `N#C[C@@]1(c2ccc3c(N)ncnn23)O[C@H](CO)[C@@H](O)[C@H]1O` is reported as 0.0684 (plasma protein binding; dog plasma; 10 µM).
For `Cc1nc2cccc(OCC(C)(C)C(=O)NC(C)C)c2c(N)c1C(=O)O`, “micronucleated NCE per 2000 PCE” read 0.9 (male Swiss albino CD-1 mouse, bone marrow; oral, 1000 mg/kg, 48 h).
`CCC(C)n1ncn(-c2ccc(N3CCN(c4ccc(OCC5COC(Cn6cncn6)(c6ccc(Cl)cc6Cl)O5)cc4)CC3)cc2)c1=O` (stereo not shown) — result for “adverse event incidence”: 7% (item: respiratory thoracic mediastinal disorders; healthy human participants; oral, 200 mg, compound alone cohort).
For `CCCCc1ccc(-c2ccc(C#N)cc2)cc1`, the fetal accumulation was 1.22 ± 1.02 ng/g (Sprague-Dawley rat, female, fetus; 5000 ng/mL in perfusate, 50 (unit not given), high dose, mixture of 21 LCMs).
With `COc1cccc(OC)c1-c1cc(C(=O)NC2(C(=O)O)C3CC4CC(C3)CC2C4)nn1-c1ccc(C(=O)N(C)CCCN(C)CCCN(C)C(=O)CN2CCN(CC(=O)[O-])CCN(CC(=O)[O-])CCN(CC(=O)[O-])CC2)cc1C(C)C.[177Lu+3]` (stereo not shown) the tumour-to-kidney ratio was 25.5 (mouse, HT-29 xenograft; 72 h post injection, biodistribution; baseline: tumour over kidney uptake).
For `CC(C)c1nc(CN(C)C(=O)N[C@@H](CCN2CCOCC2)C(=O)N[C@H](CC[C@H](Cc2ccccc2)NC(=O)OCc2cncs2)Cc2ccccc2)cs1`, the serious TEAE was 0% (human; oral, 150 mg, drug interaction trial).
Under “heart rate change”, `CCN1/C(=C/C(C)=O)Sc2ccc(F)cc21` is recorded as 120 ± 17.3% (cynomolgus monkey; oral, 30 mg/kg, 0.5 h post-dose; baseline: pre-dose).
With `COc1cc2c3c(n(CCCN4CCOCC4)c(=O)c2cc1OC)-c1cc2c(cc1C3=O)OCO2` the Vz was 388 ± 25 L/m² (beagle dog, male, plasma; intravenous infusion, 50 mg/m^2, 1 h infusion, vehicle 2).
`Cc1ccc([C@@H]2O[C@H](CO)[C@@H](O)[C@H](O)[C@H]2O)cc1Cc1ccc(-c2ccc(F)cc2)s1`: “urinary magnesium excretion change” 11.1 mg (Japanese type 2 diabetes patients; 400 mg, day 15, 24 h urine collection; baseline: baseline).
`CO[C@@H]1[C@H](O)[C@@H](CO)O[C@H]1n1c([N+](=O)[O-])nc2c(=O)[nH]c(N)nc21` gave a depurination half-life of 66.7 h (citrate phosphate buffer; 0.5 mM, pH 7.10, 37 °C).
`O=C(c1nc2n(n1)[C@H](c1ccccc1)C[C@@H]2F)C1CC1` — result for “urinary excretion Ae(0-72 h)”: 0.152 mg (human, fed; oral, 75 mg single dose, mean).
With `CC[C@H](C)[C@H](NC(=O)[C@H](CO)NC(=O)[C@H](CCCNC(=N)N)NC(C)=O)C(=O)N[C@H]1CSSC[C@@H](C(=O)N[C@H](C(N)=O)[C@@H](C)O)NC(=O)[C@H](CCCNC(=N)N)NC(=O)[C@H](Cc2c[nH]cn2)NC(=O)[C@H](Cc2cccc3ccccc23)NC(=O)CNC(=O)[C@H](Cc2c[nH]c3ccccc23)NC(=O)[C@H](CC(=O)O)NC(=O)[C@H](CCC(N)=O)NC(=O)[C@H](Cc2c[nH]c3ccccc23)NC(=O)[C@H](C(C)C)NC1=O` the retention factor was 2.612 ± 0.005 (isocratic RP-HPLC, C18; 32% acetonitrile, phosphate pH 7.4, 1% TFA; 25 °C).
For `N#Cc1ccc2c(c1)[C@H]1CCCN(C(=O)c3ccc4[nH]cnc4c3)[C@H]1C2`, the androstenedione level was 5.6 nmol/L (human, female; 160 mg, end of trial).
With `Cc1cc(-c2ccc3cc[nH]c(=O)c3c2)ccc1O[C@H]1O[C@H](CO)[C@@H](O)[C@H](O)[C@@H]1O` the Vss was 8.37 L/kg and 4.79 L/kg (Sprague-Dawley rat, male, plasma; intravenous, 3 mg/kg).

Repeated from above:
Under “food effect on Ka”, `COc1cc(N2CCC3(CCN(C)CC3)CC2)ccc1Nc1ncc(Cl)c(Nc2ccccc2P(C)(C)=O)n1` is recorded as 0.627 (population PK model; human; oral, final model without outliers, unit not given; baseline: fasting).
With `CO[C@H]1C[C@@H]2CC[C@@H](C)[C@@](O)(O2)C(=O)C(=O)N2CCCC[C@H]2C(=O)O[C@H]([C@H](C)C[C@@H]2CC[C@@H](OC(=O)NCCOCCOCCOCCOCCOCCOCCOCCOCCC(=O)N3CCc4cc(Cn5nc(-c6ccc7oc(N)nc7c6)c6c(N)ncnc65)ccc4C3)[C@H](OC)C2)C[C@@H](O)[C@H](C)/C=C(\C)[C@@H](O)[C@@H](OC)C(=O)[C@H](C)C[C@H](C)/C=C/C=C/C=C/1C` the AUClast ratio was 2.6 (human, plasma; intravenous, 8 mg, cycle 1; baseline: day 15 over day 1).
`Cc1occc(=O)c1[O-].[Cl-].[W+4].c1cc[cH-]c1.c1cc[cH-]c1` has an oxidation potential of 569 mV (cyclic voltammetry; baseline: Ag/AgCl).
